Measured values collected from several papers.
Every numbered part comes from another study and shows a few of its results, in no order.

Block 1
Target: Histone acetyltransferase KAT6A, winged helix 1, GST fusion (KAT6A, Homo sapiens, UniProt Q92794, residues 1-85)
Technique: protein binding microarray
Molecule type: double-stranded DNA, one strand shown
Matrix: in vitro
Concentration: not given
Notes: 8-mer, flanks averaged, mean of 2 arrays, mostly near background
Baseline: not given
Direction: higher = stronger binding
Target sequence (chain): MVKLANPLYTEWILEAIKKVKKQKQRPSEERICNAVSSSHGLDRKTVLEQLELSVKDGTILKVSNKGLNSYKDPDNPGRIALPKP
The E-score of `TCCATCAA` is reported as -0.182.
`ACTTGGCA` gave an E-score of -0.298.
With `CGACCCGA` the E-score was 0.0992.
For `AGCTTCCC`, the E-score was 0.0329.
With `AGGATCGA` the E-score was -0.181.
`CGCATGCC` gave an E-score of 0.307.
`ACTAGCGG` gave an E-score of 0.304.
`GAGTATTA` gave an E-score of -0.0399.
With `ACAACCAA` the E-score was -0.0995.
With `GACCGCCA` the E-score was 0.0991.
With `GTGCTCCA` the E-score was -0.161.
With `AGCCGTGA` the E-score was 0.39.
`ACGGCTGC` gave an E-score of 0.318.
`GAACTTTA` gave an E-score of -0.105.
For `AAGGTTAC`, the E-score was 0.0161.
`AATCACCA` gave an E-score of -0.118.
With `CGAACTCC` the E-score was 0.0783.
With `AACTATAA` the E-score was 0.00861.
With `GTTGAGGA` the E-score was -0.129.

Block 2
Target: PABPC1L2, full length, GST fusion (mouse, UniProt A0ABA7IW68)
Technique: RNAcompete
Molecule type: RNA
Matrix: in vitro
Concentration: 20 nM
Notes: 7-mer, probes averaged, single round
Baseline: mean of 7-mers
Direction: higher = stronger binding
Construct (chain): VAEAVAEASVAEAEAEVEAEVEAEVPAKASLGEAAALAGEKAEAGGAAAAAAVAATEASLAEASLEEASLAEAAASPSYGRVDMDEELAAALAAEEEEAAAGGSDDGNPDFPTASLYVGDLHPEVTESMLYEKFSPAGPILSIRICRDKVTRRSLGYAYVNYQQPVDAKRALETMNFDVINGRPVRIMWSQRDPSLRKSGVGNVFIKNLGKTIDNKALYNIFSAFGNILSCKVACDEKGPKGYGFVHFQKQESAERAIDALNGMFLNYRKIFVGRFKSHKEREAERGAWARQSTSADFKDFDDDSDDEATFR
The 7-mer Z-score of `ACUAUUU` is reported as -0.151.
The 7-mer Z-score of `ACGUCGC` is reported as -0.3.
The 7-mer Z-score of `CAAUUGA` is reported as -0.122.
With `CGGAAAA` the 7-mer Z-score was 5.06.
With `AUAGUCG` the 7-mer Z-score was -0.108.
`UACGAUA` has a 7-mer Z-score of 0.108.
The 7-mer Z-score of `GUAUACC` is reported as -0.356.
For `CCAGUUA`, the 7-mer Z-score was -0.188.
The 7-mer Z-score of `CCGGUUC` is reported as -0.217.
`ACACGAC` has a 7-mer Z-score of 0.117.
`AUGGAGA` has a 7-mer Z-score of 0.18.
`UCUAACU` has a 7-mer Z-score of -0.425.
The 7-mer Z-score of `GCUAGUC` is reported as -0.345.
`UGACCAC` has a 7-mer Z-score of 0.0678.
`AGCACGA` gave a 7-mer Z-score of 0.00798.
`CUACACG` has a 7-mer Z-score of -0.11.
With `GUAGUAA` the 7-mer Z-score was 0.0152.
For `GUUGUGA`, the 7-mer Z-score was -0.11.
`CUAAACU` gave a 7-mer Z-score of 0.0551.
`UAUGUUA` has a 7-mer Z-score of -0.17.
`UUAGGUU` has a 7-mer Z-score of -0.179.
`ACAUCAG` has a 7-mer Z-score of -0.112.
For `UUCUAUU`, the 7-mer Z-score was -0.411.
`AGGUAUC` gave a 7-mer Z-score of -0.177.
The 7-mer Z-score of `CUUCCGG` is reported as -0.349.

Block 3
Target: RNA binding protein fox-1 homolog 2, RRM domain, GST-SBP tag (RBFOX2, Homo sapiens, UniProt O43251-10, residues 100-194)
Technique: RNA Bind-n-Seq
Molecule type: RNA
Matrix: in vitro
Concentration: 365 nM
Notes: natural RNA segment, single round, ends assumed
Baseline: no-protein control
Direction: higher = stronger binding
Target sequence (chain): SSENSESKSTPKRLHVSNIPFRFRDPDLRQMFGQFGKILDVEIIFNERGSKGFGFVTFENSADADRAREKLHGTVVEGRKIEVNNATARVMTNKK
Under “RBNS enrichment (R)”, `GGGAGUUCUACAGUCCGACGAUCAUUCGUGACUGAGACCAUACGUGGCCUAUAAACCUAGCAUUUGGAGAAAGUUUGCUGACUUUUGUAACAUUGGCUGCCUUUGUGCAGAAGAAAAAAACAUGGUAGGGAAGUGGAAUUCUCGGGUGCCAA` is recorded as 0.346.
`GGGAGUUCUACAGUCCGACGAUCGCAGAUACCCCAAACAUACUAUGAUAAAAUCAAAUUGUGCUACUUUUGACCCAUGUAAUUUACCUAAAAGUUGUAAUUGCUGACAGAGUACUGCCUUGAAUUUUGGUUUAUGGAAUUCUCGGGUGCCAA`: “RBNS enrichment (R)” 0.471.
`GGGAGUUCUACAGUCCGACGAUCCUUGGAGAUUUAUAUGGUCCUGCAUUUUGUCCUGUGCUCACAAUGUGAAGUGUCUUCUGUAUUCAAAUCAAAAAAUAAUAUAUUUAAGGUAUAUAAGUGUGAAUCUCCUAUGGAAUUCUCGGGUGCCAA` — result for “RBNS enrichment (R)”: 4.28.
Under “RBNS enrichment (R)”, `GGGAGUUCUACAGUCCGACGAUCCAAUAUUUUUGUUGUGUAUAGAUGUCUAAGAACCAACACUACUCAGUCUCCUGCUAGUCUGACUCCUGAAGCAUCAGACCCUGUCAUACUGUAUUGACUGUGUAUGUGCCUGGAAUUCUCGGGUGCCAA` is recorded as 0.415.
For `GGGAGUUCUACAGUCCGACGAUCAACUCCAGUCUUCUCUCAACUGCCCAGUUGUAUGUUGUCAUCAAUCACUUUUUCAAGGCUGGGUAGAGACAAGUUUCUCCUCGUAACUUUGACCUCUCCCACUCUCCAAAUGGAAUUCUCGGGUGCCAA`, “RBNS enrichment (R)” read 0.451.
`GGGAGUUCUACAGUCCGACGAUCUGGACUUGUAUGGGAUUGUCUUCUUGAUUUGAAUUGUACCGUCUUUGUUGACACAGUAGGGCUGGGCAGUGUUUAAUCCUUCCAUUUUAUAGAUUUUUUUUUAAUCAGGCUGGAAUUCUCGGGUGCCAA` — result for “RBNS enrichment (R)”: 0.864.
`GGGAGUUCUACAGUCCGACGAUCCUCCCAGUACCAGCAAGGGGGCCGUAGGUAAUUGUGUGCUUUCUUAAAGAAGUGUAUGUUUUCUGAAAGCAAAAGAAUAAAGGAAGGCCCGUCAUUCAGAGACCACUGUGUGGAAUUCUCGGGUGCCAA` — result for “RBNS enrichment (R)”: 2.65.
Under “RBNS enrichment (R)”, `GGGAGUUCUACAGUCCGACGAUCGCCUUCGCUUUAUUUUUUUAUAACUAUCAACUGCCAUCAUGUUUUGUAAUUUGGGGAUCUUGAUUUCACCGUUGUUGGUGAAGGAAAUUUUCAAUAAAUAUGCAUAACCUUGGAAUUCUCGGGUGCCAA` is recorded as 0.467.
Under “RBNS enrichment (R)”, `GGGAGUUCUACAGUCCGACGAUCCCACCAGUCACACAUUUGGAAUGUAGAUUCCAAAGACAGAAAAGAUAAAGGGUUUCCCAAGGGUAGACACCUUGACCAUCCUGAAGUAUGGGUGCUGUACCUGUUCCAGAUGGAAUUCUCGGGUGCCAA` is recorded as 0.351.
`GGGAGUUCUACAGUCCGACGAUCUUGGCUCUCCUCUGGCUAGAGUGGGAAGAGGGGGCUGGCCAUGGGGCCCUCCCAGAACCUCAGCAUUUCCUUCCAGCCCAUCCAAACACUGAGGCAGCCUUGGGGAACCCUGGAAUUCUCGGGUGCCAA`: “RBNS enrichment (R)” 0.909.
For `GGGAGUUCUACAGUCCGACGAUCUUUGUUCUACAUCAUUCUCUCUUGAUCAAGAAAUGAAAUUUCUUAAUCCUUGAAUAUUAGUAAGGUCCAGGAAAGUUACCAGCUGAUGGCGGAGUGAAGCUCAGCUCGGUUGGAAUUCUCGGGUGCCAA`, “RBNS enrichment (R)” read 0.472.
Under “RBNS enrichment (R)”, `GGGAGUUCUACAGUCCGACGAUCCACACAGCUGGCACUGGCACACACCUGUCCCAUGCCCACCCUGAGGGAUCAGGAGCAAACAGACCCUGCAAGGUCCUCCAGGCCUGGGGACAGGAAAGCCACUGACCCAGUGGAAUUCUCGGGUGCCAA` is recorded as 0.442.

Block 4
Target: RING finger protein unkempt homolog, zinc fingers 1-6, GST-SBP tag (UNK, Homo sapiens, UniProt Q9C0B0, residues 30-357)
Technique: RNA Bind-n-Seq
Molecule type: RNA
Matrix: in vitro
Concentration: not given
Notes: RNA with constant flanks, ends assumed
Baseline: input RNA pool
Direction: higher = stronger binding
Residues (chain): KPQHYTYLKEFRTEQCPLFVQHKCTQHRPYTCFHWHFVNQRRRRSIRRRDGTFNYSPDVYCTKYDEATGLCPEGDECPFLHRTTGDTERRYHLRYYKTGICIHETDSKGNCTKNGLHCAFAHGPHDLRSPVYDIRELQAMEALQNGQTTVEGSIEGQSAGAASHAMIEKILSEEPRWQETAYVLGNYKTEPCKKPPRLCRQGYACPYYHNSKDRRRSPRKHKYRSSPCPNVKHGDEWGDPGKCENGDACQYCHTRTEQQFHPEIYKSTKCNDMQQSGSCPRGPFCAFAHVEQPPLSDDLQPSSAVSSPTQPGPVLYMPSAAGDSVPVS
`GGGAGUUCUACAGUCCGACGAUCCCUGCUCAGAUCACCAUGAAAGUAAUCCAAGGCUUGUACAGUGGGGUCACCACAGUGGAACCCGAUACUUUGGCUGCUGAAACAGCUGCAACCUUGACUACUAAGCACCCUGACUAUGCUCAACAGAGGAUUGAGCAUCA` gave a bound/input enrichment of 0.251 ratio.
For `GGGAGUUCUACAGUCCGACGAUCGUUUCUUUCCUGAAAGAAGUAGAAUCUCCUUAUGAGGUCCAUGAUUAUAUCAGGGCCUAUUCCGGAGAUACUUCUGAGGCCAAGGAGUUUGCCAAGCAGUUCCUUGAGCGCCGUGCCAAACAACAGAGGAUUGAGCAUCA`, the bound/input enrichment was 0.15 ratio.
For `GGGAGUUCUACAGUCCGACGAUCUCUUUUUGAGGGUCCUUUUGUUUUCCUUUGCUUUUCUUUUGGCCUUCCCUCUGUCUUUCACUCCGACCAGCUAUUUGAAAGGGCAGACGAUGCUAAAGGUGUACUGUGCAGCUUGUUUAGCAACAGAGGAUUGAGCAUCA`, the bound/input enrichment was 0.318 ratio.
For `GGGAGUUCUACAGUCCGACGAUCUGCUUCCUGGUCCUUAGAGGACUAAAAACAAGACCCUCAUUCCCACUUUCAUUUCCACUCCCGCAAAAACUGGGCUUGCGUUUUUCUCCAACUCCUCGUUUAUAUCCUCCCUUCCAUGUCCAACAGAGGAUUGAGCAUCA`, the bound/input enrichment was 0.578 ratio.
With `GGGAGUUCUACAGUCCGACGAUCGAUAAAAUGAUUGAUGUAGCUCUUUACAUUGGGAAAGGAGCUUGACAUGCUUAGCUUCCUACCGAAGUCAGGACCGGCUGGUGUGCGGAGUGUUUCAGUUCAGAGCCUAAACUGAAAGGGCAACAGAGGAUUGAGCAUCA` the bound/input enrichment was 0.215 ratio.
The bound/input enrichment of `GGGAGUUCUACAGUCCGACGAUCAAUCCUCAACUUGUUCUAGCUUGUGAUCCCUCAAAGUUGGGUCAUACGUUAGUGCCCGAUACCCGAAAUUUUCACUUUUCCACUGAUCAGAGAGACAGACAUUAAAAACAAAAAUAGAAGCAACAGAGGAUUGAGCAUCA` is reported as 0.947 ratio.
The bound/input enrichment of `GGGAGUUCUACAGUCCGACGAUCUUCAAAAAGAGAAGAACUGAAAAUGGAAAAUCUAGAAAUUUAAGGCAACGAGGUGAUGAUCAACCGUUGCAGGAGAGCUUUUUGUACAUGCUUUUAGGACAGAAUGGAGACUUAUACACCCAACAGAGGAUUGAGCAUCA` is reported as 1.88 ratio.
`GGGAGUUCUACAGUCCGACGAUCGCGCGAGCAGAGCGCGGUUGACCUCCCUUUCUCUGCUCAGCUCCAGCGUCAUUUCGGCCUCUCCGUUCUUCUGAACCCUGCUCCUGAGCUAGGUAGGAAACAUGAGCGGCACCAACUUGGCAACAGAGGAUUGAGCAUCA` has a bound/input enrichment of 0.0263 ratio.
For `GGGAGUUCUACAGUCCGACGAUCUACCAGGGAAUCUGGAAACCAAGGAAAAUACCAAAUCCAGAUUUCUUUGAAGACCCCGAACCUUUUAAGAUGACUCCUUUCAGUGCUAUUGGUUUGGAGCUCUGGUCCAUGACAUCCGACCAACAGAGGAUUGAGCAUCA`, the bound/input enrichment was 0.0873 ratio.
`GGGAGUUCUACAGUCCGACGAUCGAGCCCUAUGGCUUCCGUGCCUCAGUGUUAUUCGAUACAAUGCAACACCAUCUAGCCUUGAACCGAGAUUUGUCCACACCUGGCCUGGAGAAGGACAGUGGAGGGAAGACACCUGGUGACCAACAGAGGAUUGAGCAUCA` has a bound/input enrichment of 0.221 ratio.
`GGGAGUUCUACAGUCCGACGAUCGAAGAUGAUGAAGAAUCUGGACGAUUACGUUUCAAAACUGAAAGGAAAGAAGGAACAAUUAUCCGGCUCUCAGAUGUAACUAGAGAGAGAAGGAACAUUCCAGAAACUUUGGAGCUUUCACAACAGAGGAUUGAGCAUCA` gave a bound/input enrichment of 0.201 ratio.

Some of these lines once more (block 2):
`AGCACGA` gave a 7-mer Z-score of 0.00798.
The 7-mer Z-score of `ACUAUUU` is reported as -0.151.
The 7-mer Z-score of `GUAUACC` is reported as -0.356.
`CUAAACU` gave a 7-mer Z-score of 0.0551.
With `CGGAAAA` the 7-mer Z-score was 5.06.
